Experimental data from different studies.
Lines come from different studies, so protocols differ. Several values in a cell are separate wells, animals, samples, runs or records. Numbers after ± are the reported error. Values after ≈ are worked out from the molar mass of the structure shown.

C[C@@H](CO)CCC[C@@H](C)[C@H]1CC[C@H]2[C@@H]3CC=C4C[C@@H](O)CC[C@]4(C)[C@H]3CC[C@]12C  EC50 (Human rotavirus; MA104, Wa): 0.26 µM
CCCCCCCCCCCC(=O)ON=C1C=CC(=C(C#N)c2ccccc2)C=C1  MFC (Kluyveromyces marxianus; broth dilution; ATCC 204093; 48 h, 37 °C): 256 mg/L (≈ 633 µM)
COC[C@H]1O[C@@H]2O[C@@H]3[C@@H](OC)[C@@H](OC)[C@@H](O[C@@H]4[C@@H](OC)[C@@H](OC)[C@@H](O[C@@H]5[C@@H](OC)[C@@H](OC)[C@@H](O[C@@H]6[C@@H](OC)[C@@H](OC)[C@@H](O[C@@H]7[C@@H](OC)[C@@H](OC)[C@@H](O[C@@H]1[C@@H](OC)[C@H]2OC)O[C@@H]7COC)O[C@@H]6COC)O[C@@H]5COC)O[C@@H]4COC)O[C@@H]3COC  inhibition (Escherichia coli; LuxR reporter, antagonist; DH5α sensor strain; 200 µM, added: OHHL 200 nM): -1 ± 2%
Cc1ccc(Nc2cnnc3ccc(-c4ccc(N5CCN(C)CC5)cc4)cc23)cn1  phenotypic severity score (Schistosoma mansoni; adult worms; 10 µM, 24 h; direction not given): 1
N=C(N)c1ccc(OCc2ccc(Br)cc2COc2ccc(C(=N)N)cc2)cc1  FICI (Escherichia coli; checkerboard; mcr-1 polymyxin-resistant; unit not given, added: rifampicin; lower = stronger synergy): 0.063
CN1CCN(c2ncc(-c3ccc4c(Nc5ncccn5)cnnc4c3)cn2)CC1  phenotypic severity score (Schistosoma mansoni; adult worms; 10 µM, 24 h; direction not given): 0
COc1cc(F)c(-c2c(Cl)nc(-c3cccs3)nc2N[C@H](C)C(C)C)c(F)c1  EC50 (Schistosoma mansoni; worm motility; adult worms ex vivo; 24 h): < 0.3 µM
C[C@H]1c2cccc(O)c2C(=O)C2=C(O)[C@]3(O)C(=O)C(C(N)=O)=C(O)[C@@H](N(C)C)[C@@H]3[C@@H](O)[C@@H]21  maximum adult worm burden (Brugia malayi; SCID mouse; dose not given, 6 weeks post-treatment, dosing x42d): 12 worms per mouse
OCCN(CCO)c1nc(-c2cccs2)nc(Cl)c1-c1c(F)cc(F)cc1F  EC50 (Schistosoma mansoni; worm motility; adult worms ex vivo; 24 h): 3.54 µM
N#CC(=C1C=CC(=NOC(=O)c2ccccc2)C=C1)c1ccccc1  MFC (Kluyveromyces marxianus; broth dilution; ATCC 204093; 48 h, 37 °C): 256 mg/L (≈ 784 µM)
COc1ccc(Nc2cnnc3cc(-c4ccc(S(=O)(=O)N5CCN(C)CC5)cc4)ccc23)cc1Cl  phenotypic severity score (Schistosoma mansoni; adult worms; 10 µM, 24 h; direction not given): 4
COc1ccc(N/N=C/c2ccc(-c3cccc(/C=N/Nc4ccc(OC)cc4)c3)cc2)cc1  selectivity ratio (Aspergillus terreus; ATCC MYA-3633; relative to: mammalian CC50 over MIC): < 0.6
CC1=C(Cn2cc(CN3CCSC3)nn2)C(=O)c2ccccc2C1=O  killing (Schistosoma mansoni; adult worms; 25 µM, 48 h): 46.4%
COC(=O)[C@H](Cc1c[nH]c2ccccc12)NCc1cc2ccccc2nc1SC  growth (Pseudomonas aeruginosa; 16 µg/mL, without pentamidine; relative to: control): 98%
CN1CCN(S(=O)(=O)c2ccc(-c3ccc4c(Nc5cnccn5)cnnc4c3)cc2)CC1  phenotypic severity score (Schistosoma mansoni; adult worms; 10 µM, 1 h; direction not given): 0
Fc1cc(F)c(-c2c(Cl)nc(-c3cccs3)nc2NCc2ccccc2)c(F)c1  EC50 (Schistosoma mansoni; worm motility; adult worms ex vivo; 24 h): 0.64 µM
Nc1nc(-c2ccccc2)nc2[nH]nc(Nc3ccc(C(F)(F)F)cc3)c12  clinical score (coxsackievirus B3; 31-1-93, NMRI mice, CVB3 chronic myocarditis; oral, 100 mg/kg twice daily, day 5, dosed days 3 to 10, score scale 0 to 7; direction not given): 0.7
CC1=C(Cn2cnc([N+](=O)[O-])n2)C(=O)c2ccccc2C1=O  killing (Schistosoma mansoni; adult worms; 10 µM, 48 h): 40.7%
C(=N\Nc1ccccc1)/c1ccc(-c2ccc(/C=N/Nc3ccccc3)cc2)cc1  selectivity ratio (Candida albicans; ATCC MYA-1003; relative to: CC50 over MIC): < 0.6
N=C(N)c1ccc(OCc2ccc(-c3ccccc3)cc2COc2ccc(C(=N)N)cc2)cc1  MIC of compound in combination (Escherichia coli; checkerboard; mcr-1 polymyxin-resistant; concentration not given, 20 h, added: rifampicin): 12.5 mg/L
O=C(Nc1ccc([N+](=O)[O-])cc1Cl)c1cc(Cl)ccc1O  viral genome replication (human adenovirus C5 wild type; qPCR; A549; 100 nM, 24 h post-infection; relative to: DMSO control): decreased
COc1ccc(Nc2cnnc3ccc(-c4ccc(N5CCN(C)CC5)cc4)cc23)cc1Cl  phenotypic severity score (Schistosoma mansoni; adult worms; 10 µM, 1 h; direction not given): 0
CCOC(=O)C1=C(CN2CCC[C@H]2C(=O)Nc2cccc(B(O)O)c2)NC(c2nccs2)=N[C@@H]1c1ccc(F)cc1Br  EC50 (Hepatitis B virus; HBV DNA reduction, qPCR, refers to: positive-strand DNA; HepDES19; 3 days): 37.7 ± 8.02 µM
OC(Cn1cncn1)(Cn1cncn1)c1ccc(F)cc1F  viable cell reduction (Candida albicans; ATCC 60193; 4 × MIC, 12 h): 65 to 70%
Cc1cc(OC(C)C)ccc1C(=O)C(C)(C)NC(=O)c1sccc1C  inhibition (Botrytis cinerea; mycelial growth; B05.10; 0.003 µg/mL): 29.2 ± 19.9%
COC(=O)[C@H](Cc1c[nH]c2ccccc12)NCc1cc2ccccc2nc1OC  growth (Pseudomonas aeruginosa; 128 µg/mL, added: pentamidine 50 µM; relative to: control): 64.7%
CC1=C(Cc2cn(CCN3CCOCC3)nn2)C(=O)c2ccccc2C1=O  killing (Schistosoma mansoni; adult worms; 25 µM, 72 h): 49%
CC(C)n1ncc2c(C(=O)NCC3(C)CNC3)cc(C3CC3)nc21  cell protection (Enterovirus D68; cytopathic effect; RD, US/KY/14-18953; 150 nM): 10.7% and 9.15% and 6.76%
C=CC[C@@H]1c2ccc(OC)c(OC)c2CN2CCc3cc4c(cc3[C@H]12)OCO4  relative wound size (Staphylococcus aureus; P2rx7+/+ mice, skin wound infection; dose not given, day 4; relative to: day 0): 0.48 and 0.27 and 0.58 and 0.61 and 0.57 and 0.82
CC1=C(Cn2cc(CN3CCN(C(=O)OC(C)(C)C)CC3)nn2)C(=O)c2ccccc2C1=O  killing (Schistosoma mansoni; adult worms; 25 µM, 72 h): 51%
CO[C@H]1/C=C/O[C@@]2(C)Oc3c(C)c(O)c4c(c3C2=O)C2=NC3(CCN(CC(C)C)CC3)NC2=C(NC(=O)/C(C)=C\C=C\[C@H](C)[C@H](O)[C@@H](C)[C@@H](O)[C@@H](C)[C@H](OC(C)=O)[C@@H]1C)C4=O  IC50 (Mycobacteroides abscessus; intracellular growth, visual read; THP-1 derived macrophages, ATCC 19977): 0.933 µM
CC1=C(Cn2cc(CO)nn2)C(=O)c2ccccc2C1=O  killing (Schistosoma mansoni; adult worms; 10 µM, 72 h): 43.8%
CN(C)c1ccc(O)c2c1C[C@H]1C[C@H]3[C@H](N(C)C)C(O)=C(C(N)=O)C(=O)[C@@]3(O)C(O)=C1C2=O  mice with microfilariae (Brugia malayi; SCID mouse; dose not given, 6 weeks post-treatment, dosing x28d): 0%
CC(=O)NC[C@H]1CN(c2ccc(N3CCOCC3)c(F)c2)C(=O)O1  MIC90 (Staphylococcus aureus; broth microdilution; methicillin-susceptible isolates): 0.5 mg/L (≈ 1.48 µM)
CC1=C(Cn2cc(CN(Cc3ccccc3)Cc3ccccc3)nn2)C(=O)c2ccccc2C1=O  killing (Schistosoma mansoni; adult worms; 25 µM, 72 h): 48.1%
COc1ccc(Nc2cnnc3cc(-c4ccc(S(=O)(=O)N5CCN(C)CC5)cc4)ccc23)cc1  phenotypic severity score (Schistosoma mansoni; adult worms; 10 µM, 48 h; direction not given): 0
CN[C@H](CC(C)C)C(=O)N[C@H]1C(=O)N[C@@H](CC(N)=O)C(=O)N[C@H]2C(=O)N[C@H]3C(=O)N[C@H](C(=O)N[C@H](C(=O)O)c4cc(O)cc(O)c4-c4cc3ccc4O)[C@H](O)c3ccc(c(Cl)c3)Oc3cc2cc(c3O[C@@H]2O[C@H](CO)[C@@H](O)[C@H](O)[C@H]2O[C@H]2C[C@](C)(N)[C@H](O)[C@H](C)O2)Oc2ccc(cc2Cl)[C@H]1O  MIC50 (Staphylococcus aureus; broth microdilution; methicillin-resistant isolates): 1 mg/L (≈ 0.69 µM)
CC(=O)N1CCC(C(=O)N2CCN3C(=O)c4cc(-c5ccccc5)ccc4NC(=O)C3C2)CC1 (stereo not shown)  mean lifespan (Caenorhabditis elegans; N2; 12.5 µM): 19.5 days
CN1CCN(S(=O)(=O)c2ccc(-c3ccc4c(Nc5ncccn5)cnnc4c3)cc2)CC1  phenotypic severity score (Schistosoma mansoni; adult worms; 10 µM, 24 h; direction not given): 0
CC1=C(Cn2ccnc2[N+](=O)[O-])C(=O)c2ccccc2C1=O  killing (Schistosoma mansoni; adult worms; 10 µM, 24 h): 42.5%
C[C@H](CCCC(C)(C)O)[C@H]1CC[C@H]2[C@@H]3CC=C4C[C@@H](O)CC[C@]4(C)[C@H]3CC[C@]12C  EC50 (Human rotavirus; Caco-2, DS-1): 0.43 µM
CN1CCN(c2ccc(-c3ccc4nncc(Nc5cnccn5)c4c3)cc2)CC1  phenotypic severity score (Schistosoma mansoni; adult worms; 10 µM, 1 h; direction not given): 0
CC1=C(Cn2cc(CBr)nn2)C(=O)c2ccccc2C1=O  killing (Schistosoma mansoni; adult worms; 25 µM, 48 h): 50%

A few entries again:
CN[C@H](CC(C)C)C(=O)N[C@H]1C(=O)N[C@@H](CC(N)=O)C(=O)N[C@H]2C(=O)N[C@H]3C(=O)N[C@H](C(=O)N[C@H](C(=O)O)c4cc(O)cc(O)c4-c4cc3ccc4O)[C@H](O)c3ccc(c(Cl)c3)Oc3cc2cc(c3O[C@@H]2O[C@H](CO)[C@@H](O)[C@H](O)[C@H]2O[C@H]2C[C@](C)(N)[C@H](O)[C@H](C)O2)Oc2ccc(cc2Cl)[C@H]1O  MIC50 (Staphylococcus aureus; broth microdilution; methicillin-resistant isolates): 1 mg/L (≈ 0.69 µM)
CN1CCN(S(=O)(=O)c2ccc(-c3ccc4c(Nc5ncccn5)cnnc4c3)cc2)CC1  phenotypic severity score (Schistosoma mansoni; adult worms; 10 µM, 24 h; direction not given): 0
CC1=C(Cn2cnc([N+](=O)[O-])n2)C(=O)c2ccccc2C1=O  killing (Schistosoma mansoni; adult worms; 10 µM, 48 h): 40.7%
Nc1nc(-c2ccccc2)nc2[nH]nc(Nc3ccc(C(F)(F)F)cc3)c12  clinical score (coxsackievirus B3; 31-1-93, NMRI mice, CVB3 chronic myocarditis; oral, 100 mg/kg twice daily, day 5, dosed days 3 to 10, score scale 0 to 7; direction not given): 0.7
Cc1cc(OC(C)C)ccc1C(=O)C(C)(C)NC(=O)c1sccc1C  inhibition (Botrytis cinerea; mycelial growth; B05.10; 0.003 µg/mL): 29.2 ± 19.9%
C(=N\Nc1ccccc1)/c1ccc(-c2ccc(/C=N/Nc3ccccc3)cc2)cc1  selectivity ratio (Candida albicans; ATCC MYA-1003; relative to: CC50 over MIC): < 0.6
